{"data": "Results of several laboratories", "note": "Each numbered part is a random draw from the data of one study; scales do not carry over between parts."}
{"data": "Set 1", "target": "Interferon regulatory factor 5, full length, phosphomimetic (IRF5, Homo sapiens, UniProt Q13568-2, residues 1-514, K96S/S451D/S453D/S456D/S462D)", "technique": "protein-binding microarray", "form": "double-stranded DNA, one strand shown", "medium": "in vitro", "concentration": "250 nM", "setting": "60-bp whole probe", "together with": "salmon DNA 0.4 mg/ml", "relative to": "random background probes", "reading": "higher = stronger binding"}
{"Strand": "GCCTAGCACGTAGAACTGAGTTTCGATTAGTGCTAGGTCTTGATTCGCTTGACGCTGCTG", "log fluorescence": "9.23 z-score"}
{"Strand": "GCCTAGCACTTAGGTATCCTTATCCTTAAGTGCTAGGTCTTGATTCGCTTGACGCTGCTG", "log fluorescence": "0.251 z-score"}
{"Strand": "GCCTAGCACTTAGGACTGGGATTTCGGTTAGTGCTAGTCTTGATTCGCTTGACGCTGCTG", "log fluorescence": "2.93 z-score"}
{"Strand": "GCCTAGCACGGGATAAGGACAGACACCATGTGCTAGGTCTTGATTCGCTTGACGCTGCTG", "log fluorescence": "-0.166 z-score"}
{"data": "Set 2", "target": "RNA binding protein fox-1 homolog 2, RRM domain, GST-SBP tag (RBFOX2, Homo sapiens, UniProt O43251-10, residues 100-194)", "technique": "RNA Bind-n-Seq", "form": "RNA", "medium": "in vitro", "concentration": "365 nM", "setting": "natural RNA segment, single round, ends assumed", "relative to": "no-protein control", "reading": "higher = stronger binding", "all sequences stand within": "GGGAGUUCUACAGUCCGACGAUC … UGGAAUUCUCGGGUGCCAA", "Construct (chain)": "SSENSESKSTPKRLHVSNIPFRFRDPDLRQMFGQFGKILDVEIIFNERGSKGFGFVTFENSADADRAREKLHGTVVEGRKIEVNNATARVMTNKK"}
{"Strand": "GGGACCUUGUGGGCGUGGGACACCACUUCCUGCCGAGCGAGCCCACAAAAUGGAAUGUAGAGGAUGUCUAUGAGUUCAUCCGCUCUCUGCCAGGCUGCCAGGAGAUCGCG", "RBNS enrichment (R)": 0.524}
{"Strand": "UGAGAGGCGAGGAGGUAGUGGGUGAGGCUACCUGACUCACUUCAAAUGCAUGUUUUGAGAUGUUUGGAGAUUCAGCAAUUCUGUCUUCAUUGCUCCAGGAUCUGGUAUAC", "RBNS enrichment (R)": 27.7}
{"Strand": "GGGGCAGGAGGAGGGGCUGCUCUCUGAGACAGGGGCGCCCCCGCCUUGACCCCUGGGCACCUCCAUCCCCUCCCACCUGUCCCCAGAUCAGUCUCUGGGAUGGAGGCCAG", "RBNS enrichment (R)": 3.81}
{"Strand": "CUCCCUGUAUGUUAAACCCUUGACCAGUUUACUCGUUUCUAUCCUGGAAGAUUUUUAACAAAGGGAAAAACCAACAGCAAUAAGUCAUUGGUGAGCAGCUAACUCGCUCA", "RBNS enrichment (R)": 0.355}
{"Strand": "CCUCUGUCGUGUGUGCUGAUUUGAGUGGCUUAGCUUGCCACAGCGCAGCCUCUUCUGUCCCUUUCAGUCAUUUGCUGUACUUCCCUGUGGCACGUUACCAUGGAAGCCGC", "RBNS enrichment (R)": 0.274}
{"Strand": "GAUAACGACAAUUACCAAGGAAACUGUGCUGAGGAAGAGCAGUCUGGCUGGUGGUUUAACAGGUGUCACUCUGCAAACCUGAACGGUGUUUACUACCGUGGUUCCUACAG", "RBNS enrichment (R)": 0.392}
{"data": "Set 3", "target": "Sal-like protein 4, full length isoform B (SALL4, Homo sapiens, UniProt Q9UJQ4-2, residues 1-616)", "technique": "universal PBM", "form": "double-stranded DNA, one strand shown", "medium": "in vitro", "concentration": "not given", "setting": "8-mer, flanks averaged, mean of replicates", "reading": "higher = stronger binding", "Construct (chain)": "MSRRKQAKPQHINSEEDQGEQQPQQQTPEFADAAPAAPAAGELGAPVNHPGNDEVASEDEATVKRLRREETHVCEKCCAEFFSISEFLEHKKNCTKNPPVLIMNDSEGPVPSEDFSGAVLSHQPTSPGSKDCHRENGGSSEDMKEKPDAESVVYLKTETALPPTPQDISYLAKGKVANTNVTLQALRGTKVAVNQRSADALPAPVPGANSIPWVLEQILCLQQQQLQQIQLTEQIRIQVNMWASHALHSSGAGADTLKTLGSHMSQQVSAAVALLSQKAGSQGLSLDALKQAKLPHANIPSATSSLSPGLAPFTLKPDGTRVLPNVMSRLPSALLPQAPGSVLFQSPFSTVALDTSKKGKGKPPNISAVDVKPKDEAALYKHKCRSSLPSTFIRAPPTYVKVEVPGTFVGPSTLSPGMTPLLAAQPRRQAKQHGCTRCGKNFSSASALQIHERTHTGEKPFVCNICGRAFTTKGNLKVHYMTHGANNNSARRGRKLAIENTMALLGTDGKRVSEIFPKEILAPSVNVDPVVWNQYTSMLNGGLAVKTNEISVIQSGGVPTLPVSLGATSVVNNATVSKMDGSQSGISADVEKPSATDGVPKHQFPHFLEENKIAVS"}
{"Strand": "AGGACGAA", "E-score": -0.152}
{"Strand": "ACGTTAAA", "E-score": 0.253}
{"Strand": "AATCGGGT", "E-score": -0.00709}
{"Strand": "AGGTGCTG", "E-score": -0.218}
{"data": "Single results of other studies"}
{"Substance": "PhoQ, residues 284 288 289 292 302 303 QWQEDG", "target": "PhoP, residues 12 14 15 18 19 TTLRV (Escherichia coli, UniProt P23836)", "test": "Sort-seq, measured: YFP reporter", "test system": "E. coli", "conditions": "PhoQ-PhoP variant library, together with: 10 µM Mg2+", "how to read": "relative to: high Mg2+ state, higher = stronger signaling", "measurement": "fold induction", "value": 11.1}
{"note": "Excerpt of the above (set 1):"}
{"Strand": "GCCTAGCACGGGATAAGGACAGACACCATGTGCTAGGTCTTGATTCGCTTGACGCTGCTG", "log fluorescence": "-0.166 z-score"}
{"Strand": "GCCTAGCACTTAGGACTGGGATTTCGGTTAGTGCTAGTCTTGATTCGCTTGACGCTGCTG", "log fluorescence": "2.93 z-score"}
